Results collected from several papers.
Protocols differ between the studies behind these lines. Several values in a cell are separate wells, animals, samples, runs or records. ± marks the error that the study gave.

The EC50 of `COc1cnc2cccc(N3CCc4c(cc(Cn5ccnc5C)cc4-c4cn(C)nc4C(F)(F)F)C3=O)c2c1` is reported as 7.3 µM (HCC1954; cell growth, inhibitor; 120 h).
`COc1cc(NC(C)CCCN)c2ncccc2c1` (centres unmarked) gave an EC50 of 19.7 µM (iPSC-derived cardiomyocytes; concentration-response curve, measured: MyBP-C/MYH ratio; 24 h).
Under “TIGIT positive cells”, `C[C@H]1[C@H](C)CC[C@]2(C)CC[C@]3(C)C(=CC(=O)[C@@H]4[C@@]5(C)CC[C@@H](O)[C@](C)(C(=O)NCc6cn(-c7cccc(Br)c7)nn6)[C@@H]5CC[C@]43C)[C@H]12` is recorded as 11.6% (human PBMCs; flow cytometry; 5 µM; baseline: CD8- T cells).
For `Cc1cc(Nc2ncc(Cl)c(Nc3ccccc3S(=O)(=O)C(C)C)n2)c(OC(C)C)cc1C1CCNCC1`, “log2 fold change” read -2.52 (CLB-BAR; phosphoproteomics LC-MS/MS, measured: MELK phosphorylation; 200 nM, 60 min; baseline: untreated).
The viability of `O=C(Nc1ccc2c(O)cc(S(=O)(=O)O)cc2c1)Nc1ccc2c(O)cc(S(=O)(=O)O)cc2c1` is reported as 186% (OCI-Ly1; 0.1 µM, 120 h).
`Cc1cccc(-c2[nH]c(CNc3ccccc3F)nc2-c2ccc3ncnn3c2)n1` has an XTT absorbance of 2.3 E-1 and 2 E-1 and 2.4 E-1 (pomalidomide-resistant MM1.S cells; XTT; 1.5 µM; higher = more viable cells).
Under “S phase cells”, `COc1ccc(NC(=S)N/N=C/c2cccc3cc4ccccc4nc23)cc1` is recorded as 27.1 ± 1.4% (HeLa; PI flow cytometry; IC25, 48 h, with: N-acetylcysteine).
For `COc1cc2c(NC3CCN(C4CCCCC4)CC3)nc(N3CCCN(C(C)C)CC3)nc2cc1OCCCN1CCCCC1`, the viability was 193% (OCI-Ly1; 0.1 µM, 120 h).
`CCc1cnc(N2CCC(c3nc(COc4ccc(-n5cnnn5)cc4)cs3)CC2)nc1`: “log2 fold change” -0.208 (HEK293T; RNA-seq, measured: HSPB1 mRNA; 10 µM, 6 h; baseline: vehicle).
`COc1cc2ncnc(Nc3ccc(Oc4ccccc4)cc3C)c2cc1OC.O=C(O)C(F)(F)F` — result for “average fractional effect”: 0.158% (LoVo (KRAS G13D); cell viability, resazurin; 0.1 µM, 72 h, with: trametinib 0 nM; baseline: DMSO).
For `O=C(O)c1ccc(O)c2ncccc12`, the viability was 192% (OCI-Ly1; 0.1 µM, 120 h).
The cell growth of `CSc1nc(-c2ccc(Cl)cc2)c2c(NC(=O)c3ccccc3)nnc-2[nH]1` is reported as 117% (A498; SRB; 10 µM, NCI60 single-dose screen; baseline: untreated).
Under “concentration for maximal inhibition”, `CN(Cc1cnc2nc(N)nc(N)c2n1)c1ccc(C(=O)N[C@@H](CCC(=O)O)C(=O)O)cc1` is recorded as ~1 µM (WA09 MTHFR C677T(+/-) forebrain rosette tissues; single rosette emergence).
For `Nc1nc(OCc2cc(Br)cs2)c2[nH]cnc2n1`, the viability was 101% (OCI-Ly1; 0.1 µM, 120 h).
The mRNA level of `COc1cc(/C=C/C(=O)N2CCC=CC2=O)cc(OC)c1OC` is reported as 104% (MDA-MB-468; quantitative RT-PCR, measured: ENO1; 30 µM, 8 h; baseline: untreated cells).
For `C=CC(=O)N1[C@@H](c2ccc3c(c2)OCO3)c2[nH]c3ccccc3c2C[C@H]1C(=O)NC`, the neuron degeneration was 73.3% and 82.4% (rat DRG neurons; 0.3704 µM, 48 h, with: vincristine 40 nM).
`COc1cc2c(NC3CCN(C(C)C)CC3)nc(N3CCC(F)(F)CC3)nc2cc1OCCCN1CCCC1` gave a viability of 118% (OCI-Ly1; 0.1 µM, 120 h).
The EC50 of `[Cl-].[Cl-].[Ru+2].c1cnc2c(c1)ccc1cccnc12.c1cnc2c(c1)ccc1cccnc12.c1csc(-c2ccc(-c3ccc(-c4nc5c6cccnc6c6ncccc6c5[nH]4)s3)s2)c1` is reported as < 100 µM (SK-MEL-28; cytotoxicity, resazurin; dark, normoxia).
With `CCn1cc(-c2cc(Cn3ccoc3=N)cc3c2CCN([C@@H](C)c2cc(OC)ccn2)C3=O)c(C(F)(F)F)n1` the EC50 was 0.457 µM (KG-1; cell growth, inhibitor; 120 h).
`O=C1CCc2c(ccc3ccccc23)O1` has a viability of 173% (OCI-Ly1; 0.5 µM, 120 h).
`Cc1nc2ccc(OCc3ccc(F)cc3)cc2[nH]1` gave a viability of 137 ± 19.6% (sample A patient iPSC-derived NPCs; MTS; 10 µM, 24 h; baseline: vehicle).
For `Cn1cc(-c2ccc(-c3cncc(Cl)c3N3CCC4(CCNC4=O)CC3)cc2)cn1`, “log2 fold change” read 2.98 (COLO 205; gene expression, microarray, measured: CDKN1A mRNA; concentration not given, 6 h; baseline: untreated cells).
The viability of `COc1cc([C@@H]2c3cc4c(cc3[C@@H](O[C@@H]3O[C@@H]5CO[C@@H](C)O[C@H]5[C@H](O)[C@H]3O)[C@H]3COC(=O)[C@H]23)OCO4)cc(OC)c1O` is reported as 159% (OCI-Ly1; 0.1 µM, 120 h).

Repeated from above:
With `CCn1cc(-c2cc(Cn3ccoc3=N)cc3c2CCN([C@@H](C)c2cc(OC)ccn2)C3=O)c(C(F)(F)F)n1` the EC50 was 0.457 µM (KG-1; cell growth, inhibitor; 120 h).
